Results from different studies.
A part holds a random share of what one study measured.
Chain of UniProt Q96PY6 (whole entry, looked up): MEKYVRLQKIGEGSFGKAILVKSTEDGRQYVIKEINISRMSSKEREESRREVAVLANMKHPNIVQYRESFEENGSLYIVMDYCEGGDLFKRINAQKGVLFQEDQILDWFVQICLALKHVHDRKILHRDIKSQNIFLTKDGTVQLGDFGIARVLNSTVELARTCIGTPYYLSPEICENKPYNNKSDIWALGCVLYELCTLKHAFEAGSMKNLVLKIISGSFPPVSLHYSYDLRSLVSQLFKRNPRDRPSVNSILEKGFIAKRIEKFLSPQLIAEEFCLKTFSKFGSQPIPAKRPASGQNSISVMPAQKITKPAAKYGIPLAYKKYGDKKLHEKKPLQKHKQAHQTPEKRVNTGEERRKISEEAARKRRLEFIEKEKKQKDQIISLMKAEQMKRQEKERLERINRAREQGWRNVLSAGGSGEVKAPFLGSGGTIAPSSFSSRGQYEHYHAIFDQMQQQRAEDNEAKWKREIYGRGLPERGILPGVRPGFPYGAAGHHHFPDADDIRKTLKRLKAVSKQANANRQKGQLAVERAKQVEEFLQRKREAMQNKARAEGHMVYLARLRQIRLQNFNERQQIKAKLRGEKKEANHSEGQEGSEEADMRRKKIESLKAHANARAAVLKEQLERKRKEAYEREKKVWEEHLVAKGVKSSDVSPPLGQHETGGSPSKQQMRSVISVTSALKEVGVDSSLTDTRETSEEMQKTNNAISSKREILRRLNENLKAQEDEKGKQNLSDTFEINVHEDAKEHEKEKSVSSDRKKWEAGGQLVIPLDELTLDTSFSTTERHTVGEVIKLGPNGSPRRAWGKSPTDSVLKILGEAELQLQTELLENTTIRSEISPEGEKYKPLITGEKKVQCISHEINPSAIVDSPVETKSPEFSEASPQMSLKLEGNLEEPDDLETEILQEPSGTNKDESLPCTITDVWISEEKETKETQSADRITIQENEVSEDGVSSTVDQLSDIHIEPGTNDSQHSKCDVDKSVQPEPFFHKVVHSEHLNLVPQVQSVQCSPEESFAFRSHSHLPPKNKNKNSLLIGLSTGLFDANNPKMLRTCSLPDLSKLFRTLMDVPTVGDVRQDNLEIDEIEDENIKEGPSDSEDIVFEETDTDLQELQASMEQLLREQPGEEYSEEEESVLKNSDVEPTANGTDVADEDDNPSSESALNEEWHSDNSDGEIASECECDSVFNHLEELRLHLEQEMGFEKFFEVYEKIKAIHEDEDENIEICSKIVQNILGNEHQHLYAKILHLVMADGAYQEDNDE

Series 1 — target: UBE2D4 UBC core domain (UniProt Q9Y2X8); technique: yeast two-hybrid; sample: yeast; notes: mostly zero background; relative to: not given; reading: higher = stronger interaction
B1: TRIM63 RING domain (UniProt Q969Q1); chain PMENLEKQLICPICLEMFTKPVVILPCQHNLCRKCANDIFQAANPYWTSRGSSVSMSGGRFRCPTCRHEVIMDRHGV
B2: UHRF2 RING domain (UniProt Q96PU4); chain CGGDPEKKCHSCSCRVCGGKHEPNMQLLCDECNVAYHIYCLNPPLDKVPEEEYWYCPSCKTDSSEVVKAGER
B3: RC3H2 RING domain (UniProt Q9HBD1); chain QAAQWTEFLSCPICYNEFDENVHKPISLGCSHTVCKTCLNKLHRKACPFDQTAINTDIDVL
B4: ZNF598 RING domain (UniProt Q86UK7); chain AAAPERGGGSCVLCCGDLEATALGRCDHPVCYRCSTKMRVLCEQRYCAVCREELRQVVFGK
Target sequence (chain): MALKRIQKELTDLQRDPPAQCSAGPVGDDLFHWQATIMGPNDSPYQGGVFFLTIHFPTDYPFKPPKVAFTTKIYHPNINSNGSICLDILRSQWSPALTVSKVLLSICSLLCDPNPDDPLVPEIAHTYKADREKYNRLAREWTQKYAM
Sequence | lacZ reporter activity
QLQDIKEQTMCPVCLDRLKNMIFLCGHGTCQLCGDRMSECPICRKAIERRILLY (MIB1 RING domain (UniProt Q86YT6)) | 11700
B1 (TRIM63 RING domain) | 0
DDENSDNSNECVVCLSDLRDTLILPCRHLCLCTSCADTLRYQANNCPICRLPFRALLQIR (MGRN1 RING domain (UniProt O60291)) | 0
FPEHFVKSISCQICEHILADPVETNCKHVFCRVCILRCLKVMGSYCPSCRYPCFPTDLES (RAG1 RING domain (UniProt P15918)) | 0
B2 (UHRF2 RING domain) | 0
B3 (RC3H2 RING domain) | 0
B4 (ZNF598 RING domain) | 0
EDEVSDNSAECVVCLSDVRDTLILPCRHLCLCNTCADTLRYQANNCPICRLPFRALLQIR (RNF157 RING domain (UniProt Q96PX1)) | 0

Series 2 — observed: peptide-MHC binding; molecule type: peptide; concentration: concentration not given
Target: HLA class I histocompatibility antigen, A alpha chain, allele A*26:03 (Homo sapiens, UniProt P04439)
Sequence | binding
HTIFDFLAY | active
GEGSGARLL | inactive
ALYSYASAK | inactive
IATLYCVHQK | inactive
FTYAPAGMY | inactive
RSLYNTVAVLY | inactive
WLSVIAFGK | inactive
VTFFCVMTY | inactive

Single results of other studies
Compound | tested on | assay | conditions | how to read | measurement | value
COc1cc2c(cc1Cc1cccc(Cl)c1F)c(=O)c(C(=O)O)cn2[C@H](CO)C(C)C | HEK-293T-ACE2 | Hoechst nuclei count | concentration not given, counter-screen | relative to: vehicle | cell number | 102%
O=C1NC(=O)c2c1c1c3ccccc3n3c1c1c2c2ccccc2n1[C@H]1CC[C@@H]3O1 | Serine/threonine-protein kinase Nek1 (NEK1, Homo sapiens, UniProt Q96PY6) | enzyme activity, inhibitor | 0.5 µM | relative to: control | remaining activity | 50.9%
